# Results of several laboratories.
Compound,technique,matrix,time,pH,temperature,solubility
CC(C)CCCC(C)CCCC(C)CCOC1O[C@H](CO)[C@@H](O)[C@H](O)[C@@H]1O (stereo partly shown),,water,,,,19.7 µM
CC(C)(C)c1ccc(O)c(C(=O)Nc2ccc(CN)cc2)c1,,PBS,,pH 7.4,,265 µM
COc1cc(C(C)C)c(Oc2cnc(N)nc2N)cc1I,,water,,,,100 µM
CCn1cc(C(=O)NCCNCCO)c(=O)c2cc(OCc3ccc(C(C)(C)C)cc3)c(Cl)cc21,shake flask,PBS,24 h,pH 6.5,25 °C,25 µM
COc1cc(C2c3cc4c(cc3C(OC3OC5COC(C)OC5C(O)C3O)C3COC(=O)C23)OCO4)cc(OC)c1OC(=O)OC1C=CCCC(C)(C(=O)NC(CC(=O)O)C(=O)O)CC1 (stereo not shown),,PBS,,,,5000 µg/mL
CCCCCCCCCCCCCCCCCC(=O)Nc1ccn(C2OC(CO)C(O)C2(F)F)c(=O)n1 (stereo not shown),,aqueous buffer,,,,< 0.01 µM
C[Si]1(C)CNC(=O)c2ccccc21,,aqueous buffer,,pH 7.4,,397 µM
OC(CN1CCC2(CC1)CC(O)c1ccc3ccccc3c1O2)c1ccc(F)c(F)c1 (stereo not shown),absorbance,aqueous buffer,,pH 6.2,,> 42 µg/mL
O=c1c(-c2cccnc2)c[nH]n1-c1ccc(CO)cn1,,water,,,,4800 µg/mL
O=C(Nc1ccc(OC(F)(F)F)cc1)N1CCC(Cc2cccc(Oc3ccc(C(F)(F)F)cn3)c2)CC1,,water,48 h,,37 °C,0.00013 µM
CC12N3Cc4c(OCCCS(=O)(=O)[O-])ccc(OCCCS(=O)(=O)[O-])c4CN1C(=O)N1Cc4c(OCCCS(=O)(=O)[O-])ccc(OCCCS(=O)(=O)[O-])c4CN(C3=O)C12C.[Na+].[Na+].[Na+].[Na+] (stereo not shown),NMR,aqueous buffer,,,,466000 µM
CCC1CNC(CC)CN(C(C(=O)[O-])c2ccc(C(=O)[O-])cc2)C(CC)CN(CC(=O)[O-])C(CC)CN1.[Mn+2] (stereo not shown),,water,,,,200000 µg/mL
CC(=O)N[C@@H](CCC(N)=O)C(=O)N[C@@H](CCC(N)=O)C(=O)N[C@@H](CCCCN)C(=O)N[C@@H](Cc1ccccc1)C(=O)N[C@@H](CCC(N)=O)C(=O)OCC(=O)N[C@@H](CCC(N)=O)C(=O)N[C@@H](Cc1ccccc1)C(=O)N[C@@H](CCC(=O)O)C(=O)N[C@@H](CCC(N)=O)C(=O)N[C@@H](CCC(N)=O)C(N)=O,,water,,,,≥ 10000 µM
O=c1c2cc(-c3ccc(Cl)cc3)nc(-c3cccnc3)c2ncn1C1CCC(O)CC1 (stereo not shown),,aqueous buffer,,,,< 100 µg/mL
O=C(Nc1cc(C(F)F)ns1)Nc1cc(F)ncc1CO,HPLC,PBS,24 h,pH 7.4,,≥ 100 µM
CC(=O)c1c(O)c(C)c(O)c2c1OC1=CC(=O)/C3=C(/C)N[C@H](C(=O)O)CC1=CC=C(O)C=C[C@]2(C)C3=O,HPLC,water,24 h,,25 °C,3810 µM
C[n+]1cc2cc3cc(ccc31)NC(=O)CCCCC(=O)Nc1ccc3c(c1)cc(c[n+]3C)C(=O)NCc1cccc(c1)CNC2=O,,aqueous buffer,,pH 7.4,,< 2 µM
COc1ccc(-c2oc3ccc(-c4cc(OC)c(OC)c(OC)c4)cc3c2C#CC(C)(C)O)cc1,,aqueous buffer,,,,< 1 µg/mL
Cc1c(-c2ccc(Cc3ccc(OC(F)(F)F)cc3)cc2)[nH]c2cccc(F)c2c1=O,,methanol,24 h,,,28000 µM

# For quick reference, copied from above:
Compound,technique,matrix,time,pH,temperature,solubility
CC(C)CCCC(C)CCCC(C)CCOC1O[C@H](CO)[C@@H](O)[C@H](O)[C@@H]1O (stereo partly shown),,water,,,,19.7 µM
CC(=O)N[C@@H](CCC(N)=O)C(=O)N[C@@H](CCC(N)=O)C(=O)N[C@@H](CCCCN)C(=O)N[C@@H](Cc1ccccc1)C(=O)N[C@@H](CCC(N)=O)C(=O)OCC(=O)N[C@@H](CCC(N)=O)C(=O)N[C@@H](Cc1ccccc1)C(=O)N[C@@H](CCC(=O)O)C(=O)N[C@@H](CCC(N)=O)C(=O)N[C@@H](CCC(N)=O)C(N)=O,,water,,,,≥ 10000 µM
